Measurements from different studies.
± gives the spread as reported.
HDAC6 ZnF-UBD domain: Protein deacetylase HDAC6, ZnF-UBD domain (HDAC6, Homo sapiens, UniProt Q9UBN7)
UniProt Q9UBN7, sequence (whole entry, looked up): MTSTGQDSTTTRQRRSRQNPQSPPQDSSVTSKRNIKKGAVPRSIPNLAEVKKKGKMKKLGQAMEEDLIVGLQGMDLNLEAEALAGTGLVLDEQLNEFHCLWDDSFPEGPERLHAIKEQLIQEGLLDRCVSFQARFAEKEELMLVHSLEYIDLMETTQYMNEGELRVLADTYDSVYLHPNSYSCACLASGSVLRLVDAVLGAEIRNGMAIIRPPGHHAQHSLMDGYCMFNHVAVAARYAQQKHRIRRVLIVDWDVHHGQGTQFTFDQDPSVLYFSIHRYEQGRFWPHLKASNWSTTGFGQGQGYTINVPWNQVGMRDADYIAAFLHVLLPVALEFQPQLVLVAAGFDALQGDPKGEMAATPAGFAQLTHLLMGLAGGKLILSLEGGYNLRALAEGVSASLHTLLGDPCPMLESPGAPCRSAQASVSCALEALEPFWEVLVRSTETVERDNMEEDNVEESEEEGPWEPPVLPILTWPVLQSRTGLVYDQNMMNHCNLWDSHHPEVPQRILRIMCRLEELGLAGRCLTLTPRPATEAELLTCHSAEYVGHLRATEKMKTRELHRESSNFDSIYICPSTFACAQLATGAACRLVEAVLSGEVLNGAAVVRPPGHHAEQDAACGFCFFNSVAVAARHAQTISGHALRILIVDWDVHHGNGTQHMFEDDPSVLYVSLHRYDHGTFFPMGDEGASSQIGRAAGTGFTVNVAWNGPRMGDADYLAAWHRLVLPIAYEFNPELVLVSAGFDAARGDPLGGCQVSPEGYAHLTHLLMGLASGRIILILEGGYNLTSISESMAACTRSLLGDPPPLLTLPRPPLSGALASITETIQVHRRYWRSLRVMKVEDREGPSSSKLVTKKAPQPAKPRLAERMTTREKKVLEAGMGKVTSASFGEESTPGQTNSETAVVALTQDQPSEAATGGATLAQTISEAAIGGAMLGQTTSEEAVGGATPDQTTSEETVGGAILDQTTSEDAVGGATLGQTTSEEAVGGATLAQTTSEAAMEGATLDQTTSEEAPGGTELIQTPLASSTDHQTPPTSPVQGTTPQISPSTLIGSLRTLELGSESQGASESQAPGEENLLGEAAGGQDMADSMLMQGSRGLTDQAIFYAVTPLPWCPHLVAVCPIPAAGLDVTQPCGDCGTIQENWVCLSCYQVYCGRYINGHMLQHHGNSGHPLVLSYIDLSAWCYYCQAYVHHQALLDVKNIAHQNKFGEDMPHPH
Methyl-accepting chemotaxis protein McpA ligand-binding domain: Methyl-accepting chemotaxis protein McpA, ligand-binding domain (Bacillus velezensis, UniProt A7Z835)
USP13 ZnF-UBD domain: Ubiquitin carboxyl-terminal hydrolase 13, ZnF-UBD domain (USP13, Homo sapiens, UniProt Q92995)
UniProt Q92995, sequence (whole entry, looked up): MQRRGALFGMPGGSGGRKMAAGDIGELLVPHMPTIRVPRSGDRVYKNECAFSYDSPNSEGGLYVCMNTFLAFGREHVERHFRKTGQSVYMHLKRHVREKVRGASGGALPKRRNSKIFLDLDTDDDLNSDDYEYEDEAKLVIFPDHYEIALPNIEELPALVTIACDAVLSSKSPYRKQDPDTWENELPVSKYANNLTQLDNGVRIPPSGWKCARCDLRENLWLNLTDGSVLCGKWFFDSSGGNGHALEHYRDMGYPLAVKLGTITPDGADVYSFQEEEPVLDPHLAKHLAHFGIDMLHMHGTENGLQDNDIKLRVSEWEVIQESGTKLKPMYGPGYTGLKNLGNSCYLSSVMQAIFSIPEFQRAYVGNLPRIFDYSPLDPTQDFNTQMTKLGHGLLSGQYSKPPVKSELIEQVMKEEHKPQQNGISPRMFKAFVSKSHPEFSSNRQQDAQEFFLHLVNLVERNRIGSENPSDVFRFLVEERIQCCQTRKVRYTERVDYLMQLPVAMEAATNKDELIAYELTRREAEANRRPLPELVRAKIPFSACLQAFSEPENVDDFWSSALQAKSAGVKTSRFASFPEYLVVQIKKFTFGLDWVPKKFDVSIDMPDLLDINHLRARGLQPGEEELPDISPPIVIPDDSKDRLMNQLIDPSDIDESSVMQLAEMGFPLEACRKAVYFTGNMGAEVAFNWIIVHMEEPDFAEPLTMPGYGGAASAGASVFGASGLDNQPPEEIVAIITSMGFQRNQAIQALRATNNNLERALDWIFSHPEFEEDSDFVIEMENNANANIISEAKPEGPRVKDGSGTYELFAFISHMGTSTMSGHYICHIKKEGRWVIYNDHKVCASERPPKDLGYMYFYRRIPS
LYZ: Lysozyme C (LYZ, Gallus gallus, UniProt P00698)
UniProt P00698, sequence (whole entry, looked up): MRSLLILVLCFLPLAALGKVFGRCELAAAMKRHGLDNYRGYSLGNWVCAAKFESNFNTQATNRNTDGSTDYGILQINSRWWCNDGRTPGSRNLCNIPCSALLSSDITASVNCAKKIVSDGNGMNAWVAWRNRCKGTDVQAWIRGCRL
SCRIB PDZ3 domain: Protein scribble homolog, PDZ3 domain (SCRIB, Homo sapiens, UniProt Q14160)
UniProt Q16774, sequence (whole entry, unmodified, looked up): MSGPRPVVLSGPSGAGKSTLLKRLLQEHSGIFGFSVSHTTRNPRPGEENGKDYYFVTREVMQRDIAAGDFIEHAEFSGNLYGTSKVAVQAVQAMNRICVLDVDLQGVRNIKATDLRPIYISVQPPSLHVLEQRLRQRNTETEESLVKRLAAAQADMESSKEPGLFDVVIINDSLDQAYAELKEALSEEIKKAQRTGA
UniProt Q14160, sequence (whole entry, looked up): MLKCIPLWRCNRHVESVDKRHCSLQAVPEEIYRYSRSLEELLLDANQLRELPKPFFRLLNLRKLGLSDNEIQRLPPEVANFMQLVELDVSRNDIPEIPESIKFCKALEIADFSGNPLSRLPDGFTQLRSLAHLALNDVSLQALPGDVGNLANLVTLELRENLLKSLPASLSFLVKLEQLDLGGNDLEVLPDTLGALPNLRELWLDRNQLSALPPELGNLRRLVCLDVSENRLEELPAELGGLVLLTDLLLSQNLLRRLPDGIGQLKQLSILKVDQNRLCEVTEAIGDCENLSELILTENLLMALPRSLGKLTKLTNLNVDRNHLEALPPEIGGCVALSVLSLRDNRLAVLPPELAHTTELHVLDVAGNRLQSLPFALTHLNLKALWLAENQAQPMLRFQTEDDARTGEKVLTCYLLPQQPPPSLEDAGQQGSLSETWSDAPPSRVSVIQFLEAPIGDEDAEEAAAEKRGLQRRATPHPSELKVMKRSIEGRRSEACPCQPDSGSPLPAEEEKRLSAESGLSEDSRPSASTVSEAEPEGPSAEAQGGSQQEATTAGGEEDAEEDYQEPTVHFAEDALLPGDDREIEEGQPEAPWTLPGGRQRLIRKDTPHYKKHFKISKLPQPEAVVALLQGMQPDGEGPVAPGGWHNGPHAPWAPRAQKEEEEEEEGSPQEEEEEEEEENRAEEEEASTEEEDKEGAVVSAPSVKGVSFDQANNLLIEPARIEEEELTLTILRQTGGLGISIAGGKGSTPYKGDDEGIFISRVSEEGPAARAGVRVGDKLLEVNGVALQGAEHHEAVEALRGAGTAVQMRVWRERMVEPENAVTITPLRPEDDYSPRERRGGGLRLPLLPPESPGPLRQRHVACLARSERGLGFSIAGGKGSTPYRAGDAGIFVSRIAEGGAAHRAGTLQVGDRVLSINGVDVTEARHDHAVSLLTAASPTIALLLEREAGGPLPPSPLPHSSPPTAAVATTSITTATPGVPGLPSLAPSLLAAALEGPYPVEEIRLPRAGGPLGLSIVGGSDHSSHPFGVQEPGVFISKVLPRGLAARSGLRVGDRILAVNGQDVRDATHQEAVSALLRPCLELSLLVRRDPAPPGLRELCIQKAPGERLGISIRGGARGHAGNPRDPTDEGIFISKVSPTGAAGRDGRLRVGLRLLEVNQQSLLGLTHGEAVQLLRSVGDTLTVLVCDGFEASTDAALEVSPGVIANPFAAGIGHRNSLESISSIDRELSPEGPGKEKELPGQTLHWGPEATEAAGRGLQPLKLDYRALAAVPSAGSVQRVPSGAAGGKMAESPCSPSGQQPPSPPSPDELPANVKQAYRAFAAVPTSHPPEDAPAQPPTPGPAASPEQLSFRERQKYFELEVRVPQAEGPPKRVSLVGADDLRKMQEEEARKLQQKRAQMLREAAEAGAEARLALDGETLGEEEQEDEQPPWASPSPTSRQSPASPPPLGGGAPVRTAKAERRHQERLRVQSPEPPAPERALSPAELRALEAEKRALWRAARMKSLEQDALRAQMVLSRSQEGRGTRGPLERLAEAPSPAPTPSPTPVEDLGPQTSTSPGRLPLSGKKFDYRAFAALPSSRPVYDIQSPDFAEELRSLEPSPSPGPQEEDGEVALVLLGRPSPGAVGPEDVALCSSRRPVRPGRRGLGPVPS
UniProt Q99814, sequence (whole entry, unmodified, looked up): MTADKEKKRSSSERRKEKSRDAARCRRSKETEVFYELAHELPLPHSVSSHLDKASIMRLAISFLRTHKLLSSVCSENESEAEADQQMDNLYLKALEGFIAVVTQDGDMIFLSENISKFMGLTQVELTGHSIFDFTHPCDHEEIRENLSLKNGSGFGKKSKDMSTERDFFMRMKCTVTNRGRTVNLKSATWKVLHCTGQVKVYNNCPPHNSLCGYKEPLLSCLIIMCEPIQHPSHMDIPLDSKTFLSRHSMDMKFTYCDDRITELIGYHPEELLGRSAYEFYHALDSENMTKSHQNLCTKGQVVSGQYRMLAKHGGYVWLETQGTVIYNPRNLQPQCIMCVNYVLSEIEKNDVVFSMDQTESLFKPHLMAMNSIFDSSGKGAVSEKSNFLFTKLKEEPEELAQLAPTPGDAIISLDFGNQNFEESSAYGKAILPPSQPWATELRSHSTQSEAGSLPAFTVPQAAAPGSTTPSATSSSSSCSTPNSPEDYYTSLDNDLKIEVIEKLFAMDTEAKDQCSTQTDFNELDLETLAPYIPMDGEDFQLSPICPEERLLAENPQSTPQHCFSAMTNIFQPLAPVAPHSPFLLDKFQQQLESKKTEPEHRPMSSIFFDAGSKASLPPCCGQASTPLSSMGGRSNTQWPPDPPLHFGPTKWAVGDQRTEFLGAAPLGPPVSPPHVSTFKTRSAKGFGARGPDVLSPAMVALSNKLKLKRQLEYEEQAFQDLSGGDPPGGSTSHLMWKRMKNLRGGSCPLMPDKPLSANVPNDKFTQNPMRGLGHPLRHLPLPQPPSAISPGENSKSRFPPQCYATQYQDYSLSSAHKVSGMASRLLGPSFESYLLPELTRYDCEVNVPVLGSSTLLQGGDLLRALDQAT

`N#Cc1c2n(c3c(=O)n(CC(=O)O)cnc13)CCCC2` gave a Kd of 105 µM (HDAC6 ZnF-UBD domain).
`Cn1cc(-c2ccc(-c3cncc(Cl)c3N3CCC4(CCNC4=O)CC3)cc2)cn1`: “log2 fold change” 4.06 (COLO 205; gene expression, microarray, refers to: SAT1 mRNA; concentration not given, 2 h; reference: untreated cells).
For `Cc1cc(Nc2cc3ncccc3c(N[C@@H]3C[C@H]4CC[C@@H](C3)N4CCC#N)n2)n[nH]1`, the Kd was 0.02 µM (NUAK family SNF1-like kinase 2 (NUAK2, Homo sapiens, UniProt Q9H093); binding, KINOMEscan).
`CCCC(CCC)C(=O)O` has a Kd of over 3020 µM (Protein deacetylase HDAC6 (HDAC6, Homo sapiens, UniProt Q9UBN7); inhibitor, competition pulldown; SW620 and MV4-11 lysate; 1 h).
`O=[N+]([O-])c1cc(C(F)(F)F)ccc1NCc1ccsc1` gave a Kd of 0.75 ± 0.08 µM (Endothelial PAS domain-containing protein 1, PAS-B domain (EPAS1, Homo sapiens, UniProt Q99814, N288Q); ITC, reverse mode; 25 °C).
`O=C(O)Cn1ccc2ccccc2c1=O` has a Kd of 698 µM (HDAC6 ZnF-UBD domain).
Under “change in EEG Beta2-power Pz-O2”, `OC(CCN1CCCCC1)(c1ccccc1)C1CC2C=CC1C2` (stereo not shown) is recorded as -7.4% (resting-state EEG; healthy elderly humans; oral, 2 mg, eyes closed, LS mean; reference: baseline).
`O=C(O)CC(O)C(=O)O` (stereo not shown) has a Kd of 4.02 ± 0.24 µM (Methyl-accepting chemotaxis protein McpA ligand-binding domain; binding, biolayer interferometry; 25 °C, 1:1 binding model).
The Kd of `O=C(O)CCC(=O)c1ccc2c(c1)CCC(=O)N2` is reported as over 1000 µM (USP13 ZnF-UBD domain).
The Kd of `N[C@@H](CCC(=O)O)C(=O)O` is reported as 24.9 ± 2.14 µM (Methyl-accepting chemotaxis protein McpA ligand-binding domain; binding, biolayer interferometry; 25 °C, 1:1 binding model).
For `F[C@@H]1CCN(c2ccc(-c3ccc4sc(-c5cccnc5)cc4n3)cn2)C1`, the Kd was 0.00185 µM (Alpha-synuclein, aggregates (SNCA, Homo sapiens, UniProt P37840); binding, [3H]compound homologous binding; Parkinson's disease brain homogenate).
With `CC(C)C[C@H](NC(=O)[C@@H]1CCCN1C(=O)[C@H](CCC(N)=O)NC(=O)[C@H](CC(N)=O)NC(=O)[C@H](Cc1c[nH]cn1)NC(=O)[C@H](Cc1ccc(OP(=O)(O)O)cc1)NC(=O)[C@@H](NC(=O)[C@@H]1CCCN1C(=O)[C@H](CC(N)=O)NC(=O)[C@H](CCC(N)=O)NC(=O)[C@@H](NC(=O)[C@H](CO)NC(=O)CNC(=O)[C@H](C)NC(=O)[C@@H]1CCCN1C(=O)c1ccc2c(c1)C(=O)OC21c2ccc(N(C)C)cc2Oc2cc(N(C)C)ccc21)C(C)C)C(C)C)C(=O)N[C@@H](CC(N)=O)C(=O)N1CCC[C@H]1C(=O)N[C@@H](CC(=O)O)C(=O)O` the Kd was 0.523 µM (Tyrosine-protein kinase ABL1, SH2 domain (ABL1, Homo sapiens, UniProt P00519); binding).
For `CC[C@@H]1[C@H](F)C(=O)N[C@@H]1COc1nccc2cc(C(N)=O)c(OC)cc12`, the inhibition was 1.9% (Serine/threonine-protein kinase tousled-like 1 (TLK1, Homo sapiens, UniProt Q9UKI8); ATP-site probe binding, ActivX profiling; THP-1 cell lysate; 0.01 mM, Lys2 site).
For `NCCCCCC(=O)N1CCc2cc(NC(=O)c3ccc(CN(C(=O)c4ccc5c(c4)OCC(=O)N5)C4CC4)cc3)ccc2C1`, the Kd was 0.076 ± 0.004 µM (Histone-lysine N-methyltransferase NSD2, PWWP1 domain (NSD2, Homo sapiens, UniProt O96028); SPR single-cycle kinetics; pH 7.4, 20 °C, 0.5% DMSO).
With `O=C(O)Cc1c[nH]c2ccccc12` the Kd was 4.71 µM (Auxin-binding protein 1 (ERABP1, Arabidopsis thaliana, UniProt P33487); binding, microscale thermophoresis; Flag-tagged protein from protoplasts).
`c1coc(-c2n[nH]cc2-c2ccnc3ccccc23)c1` — result for “log2 fold change”: -0.07 (SAK1 (Candida albicans); kinase binding, MIB/MS competition; Candida albicans lysate; 10 µM; reference: DMSO).
For `CC(=O)N[C@H]1[C@H](O[C@H]2[C@H](O)[C@@H](NC(C)=O)C(O)O[C@@H]2CO)O[C@H](CO)[C@@H](O[C@@H]2O[C@H](CO)[C@@H](O)[C@H](O)[C@H]2NC(C)=O)[C@@H]1O` (stereo partly shown), the Kd was 17.2 ± 2.3 µM (LYZ; surface sampling native MS; 10-fold dilution).
For `CC1=C(/C=C/C(C)=C/C=C/C(C)=C/C=C/C=C(C)/C=C/C=C(C)/C=C/C2=C(C)CCCC2(C)C)C(C)(C)CCC1`, the Kd was 0.0153 µM (Beta-lactoglobulin (LGB, Bos taurus, UniProt P02754); binding, fluorescence quenching; PBS; 30 min, 303 K).
For `C#Cc1c(F)ccc2cc(O)cc(-c3ncc4c(N5CC6CCC(C5)N6)nc(OC[C@@]56CCCN5C[C@H](F)C6)nc4c3F)c12`, the Kd was over 30 µM (Ras-related protein R-Ras, GDP-bound (RRAS, Homo sapiens, UniProt P10301); binding, surface plasmon resonance).
For `Nc1nc2c(ncn2[C@@H]2O[C@H](COP(=O)(O)O)[C@@H](O)[C@H]2O)c(=O)[nH]1`, the Kd was 66 ± 1 µM (GUK1 (Homo sapiens, UniProt Q16774, R148A); binding, ITC; 25 °C, with: GMP).
`Nc1ncnc2c1ncn2[C@@H]1O[C@H](COP(=O)(O)OP(=O)(O)OC[C@H]2OC(O)[C@H](O)[C@@H]2O)[C@@H](O)[C@H]1O` (stereo partly shown) gave a Kd of 4.07 µM (Zinc finger protein 721 (ZNF721, Homo sapiens, UniProt Q8TF20)).
The Kd of `Nc1nc2c(ncn2[C@H]2C[C@H](OP(=O)(O)OP(=O)(O)O)[C@@H](COP(=O)(O)OP(=O)(O)O)O2)c(=O)[nH]1` is reported as 0.84 µM (Guanosine-inosine kinase (gsk, Escherichia coli, UniProt P0AEW6)).
`O=C(O)CCO` has a Kd of 58.5 ± 6.41 µM (Methyl-accepting chemotaxis protein McpA ligand-binding domain; binding, biolayer interferometry; 25 °C, 1:1 binding model).
With `Cn1cc(-c2cc(-c3ccccc3O)nnc2N)cn1` the Kd was 0.098 ± 0.019 µM (SWI/SNF-related matrix-associated actin-dependent regulator of chromatin subfamily A member 2 (SMARCA2, Homo sapiens, UniProt P51531); binding, NanoBRET tracer displacement; permeabilized HEK293).
`CCN(CC)Cc1ccc2cc(COC(=O)Nc3ccc(C(=O)NO)cc3)ccc2c1` gave a Kd of 11.6 µM (Alpha-synuclein, pre-formed fibrils (SNCA, Homo sapiens, UniProt P37840); binding, ITC; PBS; 25 °C).
For `CC(=O)N[C@H]1[C@H](O[C@H]2[C@H](O)[C@@H](NC(C)=O)C(O)O[C@@H]2CO)O[C@H](CO)[C@@H](O[C@@H]2O[C@H](CO)[C@@H](O)[C@H](O)[C@H]2NC(C)=O)[C@@H]1O` (stereo partly shown), the Kd was 7.9 ± 0.2 µM (LYZ; binding, native nano-ESI MS; pH 7.4, emitter tip 500 nm).
`CC(C)C[C@H](NC(=O)[C@H](CCC(=O)O)NC(=O)[C@@H](NC(=O)[C@H](CC(=O)O)NC(=O)[C@H](CCCNC(=N)N)NC(=O)[C@H](Cc1ccc(O)cc1)NC(=O)[C@H](CCCNC(=N)N)NC(=O)[C@H](C)NC(=O)[C@H](CO)NC(=O)[C@@H](N)CCC(N)=O)[C@@H](C)O)C(=O)O` has a Kd of 13.7 µM (SCRIB PDZ3 domain; binding, fluorescence polarization; solution; Scribble PDZ3 domain).
`CC(C)C[C@H](NC(=O)C[C@H](O)[C@H](CC(C)C)NC(=O)[C@H](Cc1c[nH]cn1)NC(=O)CNC(=O)[C@@H](NC(=O)[C@H](C)NC(=O)[C@H](Cc1c[nH]c2ccccc12)NC(=O)[C@H](CCC(N)=O)NC(=O)[C@@H](Cc1ccccc1)NC(=O)COCCOCCNC(=O)CCC(C(=O)O)N1CCN(CC(=O)O)CCN(CC(=O)O)CCN(CC(=O)O)CC1)C(C)C)C(N)=O` (stereo partly shown) [lutetium-177 labelled] gave a tissue uptake of 0.53 ± 0.15 %ID/g (female BALB/c nu/nu mice, kidneys; intravenous, 100 pmol, 48 h, with: PA 300 µg).
`Cc1cc2nc3c(=O)[nH]c(=O)nc-3n(C[C@H](O)[C@H](O)[C@H](O)COP(=O)(O)OP(=O)(O)OC[C@H]3O[C@@H](n4cnc5c(N)ncnc54)[C@H](O)[C@@H]3O)c2cc1C` has a Kd of 62 µM (Latent-transforming growth factor beta-binding protein 1 (LTBP1, Homo sapiens, UniProt Q14766); binding, MS pulldown competition; SW-620 cell lysate).
`Nc1ncnc2c1ncn2[C@@H]1O[C@H](CO[P@](=O)(O)O[P@](=O)(O)O[P@@](=O)(O)S)[C@@H](O)[C@H]1O` has a Kd of 140 ± 20 µM (GUK1 (Homo sapiens, UniProt Q16774, K17A); binding, ITC; 25 °C, with: GMP).
For `O=C(O)CNc1ncnc2ccccc12`, the Kd was over 1000 µM (HDAC6 ZnF-UBD domain).
With `CCCCCCCCCCCCCC(=O)O` the Kd was 2.15 µM (uncharacterized protein (Corynebacterium lipophiloflavum, UniProt C0XPZ5); heme spectral shift, substrate, UV-visible spectral titration).
The Kd of `O=C(O)CCc1cnccn1` is reported as over 1000 µM (USP13 ZnF-UBD domain).
For `CC(=O)N([O-])CCCCCNC(=O)CCC(=O)N([O-])CCCCCNC(=O)CCC(=O)N([O-])CCCCCN.[Fe+3]`, the Kd was 0.048 ± 0.03 µM (Iron(3+)-hydroxamate-binding protein YxeB (yxeB, Bacillus subtilis, UniProt P54941); binding, Trp fluorescence quenching; pH 7.4, with: yxeB 100 nM).
For `NC(=O)[C@H]1CCCN1C(=O)CCC(=O)O`, the Kd was 565 µM (HDAC6 ZnF-UBD domain).
`CC(C)C[C@H](NC(=O)[C@@H](NC(=O)[C@H](CC(N)=O)NC(=O)[C@@H](N)CCCNC(=N)N)[C@@H](C)O)C(=O)N[C@@H](Cc1ccc(O)cc1)C(=O)N[C@@H](Cc1ccccc1)C(=O)N[C@@H](CO)C(=O)N[C@H](C(=O)N[C@@H](CC(=O)O)C(=O)N[C@H](C(=O)O)C(C)C)[C@@H](C)O` gave a Kd of 2.9 µM (SCRIB PDZ3 domain; binding, fluorescence polarization; solution; Scribble PDZ3 domain).
The Kd of `O=C(O)CCn1c(=O)oc2ccccc21` is reported as over 1000 µM (HDAC6 ZnF-UBD domain).
The Kd of `CC[C@H](C)[C@H](NC(=O)[C@H](CCCNC(=N)N)NC(=O)[C@H](CCCCN)NC(=O)[C@@H]1CCCN1C(=O)[C@@H](N)CO)C(=O)N[C@@H](C)C(=O)O` is reported as 32 µM (N-terminal Xaa-Pro-Lys N-methyltransferase 1 (Homo sapiens, UniProt Q9BV86, D177A); ITC; 25 °C, with: peptide).
With `O=C(O)CCC(=O)N1CCc2ccccc21` the Kd was 95.6 µM (HDAC6 ZnF-UBD domain).
For `C[N+](C)(C)Cc1cccc(N=Nc2cccc(C[N+](C)(C)C)c2)c1`, the Kd was 15 to 20 µM (muscarinic receptor, Rana temporaria; antagonist, radioligand displacement; ventricle homogenate; cis isomer, from mixtures, with: [3H]N-methylscopolamine).

Repeated from above:
For `C#Cc1c(F)ccc2cc(O)cc(-c3ncc4c(N5CC6CCC(C5)N6)nc(OC[C@@]56CCCN5C[C@H](F)C6)nc4c3F)c12`, the Kd was over 30 µM (Ras-related protein R-Ras, GDP-bound (RRAS, Homo sapiens, UniProt P10301); binding, surface plasmon resonance).
For `Nc1nc2c(ncn2[C@@H]2O[C@H](COP(=O)(O)O)[C@@H](O)[C@H]2O)c(=O)[nH]1`, the Kd was 66 ± 1 µM (GUK1 (Homo sapiens, UniProt Q16774, R148A); binding, ITC; 25 °C, with: GMP).
`Nc1ncnc2c1ncn2[C@@H]1O[C@H](COP(=O)(O)OP(=O)(O)OC[C@H]2OC(O)[C@H](O)[C@@H]2O)[C@@H](O)[C@H]1O` (stereo partly shown) gave a Kd of 4.07 µM (Zinc finger protein 721 (ZNF721, Homo sapiens, UniProt Q8TF20)).
The Kd of `Nc1nc2c(ncn2[C@H]2C[C@H](OP(=O)(O)OP(=O)(O)O)[C@@H](COP(=O)(O)OP(=O)(O)O)O2)c(=O)[nH]1` is reported as 0.84 µM (Guanosine-inosine kinase (gsk, Escherichia coli, UniProt P0AEW6)).
